Published values from different studies.
Every numbered part comes from another study and shows a few of its results, in no order.

Set 1
Target: Interferon regulatory factor 7, full length, phosphomimetic (IRF7, Homo sapiens, UniProt Q92985, residues 1-503, S471D/S472D/S475D/S476D/S477D/S483D/S484D/S487D)
Technique: protein-binding microarray
Form: double-stranded DNA, one strand shown
Medium: in vitro
Tested at: 2200 nM top
Notes: 60-bp whole probe
Together with: salmon DNA 0.4 mg/ml
Relative to: random background probes
Direction: higher = stronger binding
Constant ends, left off below: GCCTAGCAC … GTCTTGATTCGCTTGACGCTGCTG
Construct (chain): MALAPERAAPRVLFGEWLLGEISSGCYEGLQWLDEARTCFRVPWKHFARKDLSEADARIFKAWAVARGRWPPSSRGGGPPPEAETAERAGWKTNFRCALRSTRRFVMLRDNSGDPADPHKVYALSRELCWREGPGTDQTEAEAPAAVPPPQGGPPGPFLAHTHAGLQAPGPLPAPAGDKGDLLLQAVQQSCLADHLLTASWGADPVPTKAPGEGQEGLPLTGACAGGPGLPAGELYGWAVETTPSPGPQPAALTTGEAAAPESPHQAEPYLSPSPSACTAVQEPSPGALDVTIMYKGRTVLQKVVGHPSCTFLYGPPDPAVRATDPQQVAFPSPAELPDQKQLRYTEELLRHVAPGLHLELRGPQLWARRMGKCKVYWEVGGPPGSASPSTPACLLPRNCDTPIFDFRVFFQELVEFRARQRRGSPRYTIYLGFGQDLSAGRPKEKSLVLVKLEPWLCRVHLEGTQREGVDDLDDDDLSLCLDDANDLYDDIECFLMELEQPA
Strand | fitted relative affinity [z-score]
TTAGGACTGGACACCGGGTTAGTGCTA | -0.681
GACGGTTTCGGGACTCGGGACGTGCTA | 4.8
TAACTAATATTAAATATGTAGTGCTAG | -0.363
TCAACCATCTCATATAAAACTGTGCTA | 0.0828
TAAGATTTCAGTATCGATTAGTGCTAG | 0.691
TTAAAACTGAGACTGGATTAGTGCTAG | -0.996
GAGGTTTTCTAATGTTTTTTAGTGCTA | 0.204
GACGGTATCCTTCTCCGGACGTGCTAG | 0.962
TCATTTTACAATTTGCTACTGTGCTAG | 2.42
CTGGTTTTACTTTCTATCTCGTGCTAG | 5.11
TTACGTTCCCTTTTCCTTTAGTGCTAG | 4.43
TTCCTTCTTGAACTCTTTACGTGCTAG | 2.52
ACTAGTTTCTTTTCTTTTCTGTGCTAG | 8.61
TCAGGTAGCCTTATCCCACTGTGCTAG | 0.45
GAGGAGGGGCTGTTACTCTCGTGCTAG | -0.248
ATGCCTTTCTCTTGGAGCTTGTGCTAG | 1.63
TTAGAGTTCAGTATCGATTAGTGCTAG | 0.121
TTAGATATCATTATCGATTAGTGCTAG | 0.222
GAGGGTCTCGGTTTCGGGACGTGCTAG | 3.14
GACGGACTGGGTCTCGGTACGTGCTAG | -0.625
TCACCTCTTTCTCTGCTACTGTGCTAG | 2.57
GACGGTATCGGGTAACGGGACGTGCTA | -0.226
TCACATTTCTGTTTTTGACTGTGCTAG | 3.38
TTAAGTATCGGGTTTCGGTTAGTGCTA | 4.24

Set 2
Target: Centromere-binding protein 1, full length, His-tagged (CBF1, Saccharomyces cerevisiae, UniProt P17106, residues 1-351)
Chain of UniProt P17106 (whole entry, looked up): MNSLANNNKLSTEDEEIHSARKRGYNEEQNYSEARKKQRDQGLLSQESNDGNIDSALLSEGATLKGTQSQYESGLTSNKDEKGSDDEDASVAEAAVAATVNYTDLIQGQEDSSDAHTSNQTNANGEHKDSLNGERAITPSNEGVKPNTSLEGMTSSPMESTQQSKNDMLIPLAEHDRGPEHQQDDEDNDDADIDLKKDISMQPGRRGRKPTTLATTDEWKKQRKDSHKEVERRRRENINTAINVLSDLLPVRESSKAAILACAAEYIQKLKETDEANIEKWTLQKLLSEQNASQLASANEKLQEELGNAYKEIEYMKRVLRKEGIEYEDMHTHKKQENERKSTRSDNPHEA
Technique: competition protein-binding microarray
Form: double-stranded DNA, one strand shown
Medium: in vitro
Tested at: 2 µM
Notes: whole 60-bp probe, lowest competitor level
Together with: Pho4 competitor, 0.05 µM
Direction: higher = stronger binding
Constant ends, left off below: … GTCTTGATTCGCTTGACGCTGCTG
Strand | fluorescence intensity [a.u.]
TCTCTCCATTCGGTTGATGTGATGCTTTGCTGTAAA | 58.8
ACCTCGGCTGCGCCTTCCGTGATGGCCATCACTGTC | 76.5
ATATGTGTGCGACGACACATGATAATATGGCATGCA | 299
CGGGTGAGGGGTTTGCACGTGACTCGGGTGCGGGTA | 7350
GGGGAATTTCGCCGTCACGTTGTTTTGGTAAGTTCC | 908
TGCGTATTCGCCCGACACGTGATGGGCGCAGATTGG | 2960
CTAACGAAGGTTTTTCACGTGCATTACAAGCCAAGT | 923
CATACCCAACCTTTTCACGTGACATAAGATATTTGT | 6070
TTAAAATGGTACTGGCACGTGATGGTAGTGGCTCAA | 5330
CGTCCTAGTGATTGCGGAGTGGGTGCCATGAGGAAG | 78.3
CGGGGTTAAGTTTGCCTCGTGGGTGGCTTGCAGCAG | 83.3
AATAGCGAGGGTCGCCCCGTGGGACATGCTACTGAG | 70.4
AGCTTGAGCCAAGACATCGTGACAAACAATAATAGG | 291
CTAACGAAGGTTTGGACGGTGGGTGACAAGCCAAGT | 71.9
CATACCCAACCTTGCCTAGTGGGTGAAGATATTTGT | 52
CGGGGTTAAGTTTGCATTGTGGGTGGCTTGCAGCAG | 74.6
TACGTATATTGCCTTCACATGCCGAGAAAGCCGACA | 105
CGATGTTGAGGAAGTCCTGTGATATTTCAAATGTGG | 110
CGGAAATGGCACCATCACCTGAAAAAGAAAGTAATC | 94.1
CGTCAGTTGGAGCACCATGTGTCTTCTTGAAAGGAT | 105
TGCGCAACAACTTGTCACCATACTTTATGTCTAGAA | 83
CTTTCCCGATCTTGACCAGTGGGTGTAGCACATTTG | 79
CGAGAATCAGGCACCCGCGTGTGAACGGCGTCATTC | 62.7
GTCTTGTCTCATTGTCACGGTACTTTCCCCACTTCA | 170
TGCGCAACAACTTGTCTCGTGGGTGTATGTCTAGAA | 91.8

Set 3
Target: RNA binding protein fox-1 homolog 2, RRM domain, GST-SBP tag (RBFOX2, Homo sapiens, UniProt O43251-10, residues 100-194)
Technique: RNA Bind-n-Seq
Form: RNA
Medium: in vitro
Tested at: 365 nM
Notes: natural RNA segment, single round, ends assumed
Relative to: no-protein control
Direction: higher = stronger binding
Constant ends, left off below: GGGAGUUCUACAGUCCGACGAUC … UGGAAUUCUCGGGUGCCAA
Target sequence (chain): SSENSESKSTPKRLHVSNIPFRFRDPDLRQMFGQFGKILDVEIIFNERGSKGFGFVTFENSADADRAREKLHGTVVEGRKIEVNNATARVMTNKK
Strand | RBNS enrichment (R)
CAGCAUCUCUACUUUUAAAGAGGAGUUGAGGAUCGAGAAGAUGACAGUGCAGCAGUGGGUGUGGCCUGACUACAUGUGCUGUUCCAGCCCUGGGUGCCCACUGACACCGA | 0.241
GUGUUGGAUGUUGUGGGCCUGGAGUCAAUAGGAACAUACAAUGUGUGUAGUGUCCGCUAAGGUUGCAGUUGGUCCCCUGCCCUGACUUCAUGCCCCAAGCCUCAGCUAUU | 0.723
UGUCAGUCACAUAGGACAGGAUAUUUAAUGUACUUUUCCUUUCUCUGAGCCACAGUUAGCUGCUAUUUUGAGGCAUCCAAGGGGAAGUGGGCUGAAAAACGCCACACUCA | 0.447
GAACUGCCUUCUUAUACUACAGAACAUGCAUUAGUGUGGGCUAUAUAGCUGUGGCUCAUGCUACCCAAUUCCAGAUUUCUUUGUCCUCUAAGAGUUGAUUGCUGUAUAUU | 0.476
UAUUUAAAGUUAGCUUCUUUCCACUUCUGUGUGUGCUUGUGUGAUUUCAUUGUUUUAAUCAAGGGCUUAAGGUGUCCUCAUUCUUGGACAUGAGAUGUAUUUAAGGAAAG | 1.21
CUUGGGAAUGCUGCGCUCUCUGUAGUUUCCAUCAUUGGUGCAGUUCGAACGAAUGAGUAGAGUUCAGAGGUCUUCGUGUUCACAUUUAAAACUAGAUAAAUGACCUCAUU | 0.537
AACCGUCUCAUCAGCUCUUGACACUUCCAUCGUGCGUGGGGACUUUGCUUCCAGAGAAUUGGAACGUGUGUGGCCUGGAGCGCAGUAGAAACCAGCCGUUCCCAACCUAU | 0.628
GCAGUGACGUCCUCCCACGCCUGGCGGCCGUAGUGGCUGUGCUCCGGGCAGCAUCGGGCUUCAUAGGUUCGUUGCUCUCCUGAGCUUUUUUGAUUCACUUGCUUUGUUUU | 0.721
UUCGGUGUGCACCAGGGUUGACCCCAGAGGAUUGCUGCCCCAUCAGUGCUCCCUCACAUGUCAGUACCUUCAAACUAGGGCCAAGCCCAGCACUGCUUGAGGAAAACAAG | 0.593
UGUCUGGGUCAUUCAGGCAGUACAUCUGAAUUAAGCUGAAUGUAGACAAAUAAAGAAAAACAAAACUGCGCCCGUCUUAGGCCUGGGUGUCUGACCCACCAGCAGUGCAA | 0.382
CUAGAUUUGACAUUACUUCCUGUAUCAUUUUACUGUAUUUUUGCAUGAUUCCUUGUAUUGCAUUUCUUUGCACAUAUUAUGGGCUUGUGACCCUAAACUUGCAGGCAAGA | 7.02
CUCGAGACAUUUUUUCUGUACUCAUAUUUAGAUUCACAAUGGUUGUGUAUCUCUAUAAUGUGAAAUAUUUUUUUGUGGUGAAUAAAAGGGGGCCAAGGAGGUAUGAGCCA | 0.894

Set 4
Target: RING finger protein unkempt homolog, zinc fingers 1-6, SBP tag (UNK, Homo sapiens, UniProt Q9C0B0, residues 30-357)
Chain of UniProt Q9C0B0 (30-357, looked up): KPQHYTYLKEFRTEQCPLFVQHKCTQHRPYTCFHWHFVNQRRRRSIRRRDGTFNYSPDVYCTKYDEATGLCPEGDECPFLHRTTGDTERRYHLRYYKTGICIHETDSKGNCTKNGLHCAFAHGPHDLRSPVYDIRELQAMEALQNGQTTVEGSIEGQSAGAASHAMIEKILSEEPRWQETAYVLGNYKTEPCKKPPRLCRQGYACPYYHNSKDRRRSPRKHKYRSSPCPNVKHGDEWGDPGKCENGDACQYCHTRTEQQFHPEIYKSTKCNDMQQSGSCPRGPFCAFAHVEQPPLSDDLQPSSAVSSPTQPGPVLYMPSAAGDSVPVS
Technique: RNA Bind-n-Seq
Form: RNA
Medium: in vitro
Tested at: 100 nM
Notes: RNA with constant flanks, vertebrate orthologous sites, ends assumed
Relative to: input RNA pool
Direction: higher = stronger binding
Constant ends, left off below: GGGAGUUCUACAGUCCGACGAUC … CAACAGAGGAUUGAGCAUCA
Strand | bound/input enrichment
CGGCAGCAGGUGGGGUCAUUCCACGCCCUAGCCUUGCCUCCCCUUCCUGCCACCGGCUCCUAGUUAUUUUUUUUUUAACCACCAUGUGAUUAAGGUCGGAGCUGCCUCCUCCCGACCCGC | 2.43 ratio
AAUCUUCUACUUAAACUGGUAUUUUCAAACAAUAGGAACCUAUUUUUUGUUUUUUUACAGUUUAGUAUCUCGUUUCUACAUGGAAGACUAAACUCAUGCUUAUAGCUAAAUGUGGUCUUU | 0.233 ratio
UAUUAGUGUCGUACCAGCCUAUUAACCUCUCGUCUGUGCACAGCUUCAAAUGUUACUGUCUAGUUAGAUUUUUAUUUAAAAUAUGAAAAACUGCUUUUCCCAAGACGUUUUUUAAAAACA | 1.61 ratio
UUGGGACCAGCUCUCCCAGUAGGAAUAGUAGUAAAAAAAAUAAACAAAAUGACACUUGUUUAGAAAAAACAGAAGUUAAAUCAUGUAAAGUAAAUGCUGUCAGUGUUCCAGGCCCUAAAG | 2.53 ratio
GUUAGGUCAUGACCCUUACAGGCUAGGUCAUGAUGCCUACAGGUUAGGGCAGGACCCCUAUAGAUUAGGCCACGAUCCCUACAGACUAACUCCUGAUCCCUAUAGGAUGUCACCUAGACC | 0.568 ratio
AAGUUAUUGCAAAAGAGCCAAGCAGUAGUAUUGUGGGGUUUUUUGUAAAUGUAAAAUACUUAGAUCCAGACUUUGUUUCCUUCUUCAAUUUUAAAAAUAAAAAAUACCUCAGUGCUAUGU | 0.332 ratio
CAGCAGAUUCUCUCAUAGGGAGAGCUGCACACAUUGCUGUUCUUGAUUCAGAAAUAUUUUUAGAAAAAUUCUUUCUUGUUGCUGCCCUGAAAUAUUUUCAGUAGAGAAAAGCAUUGUCGG | 0.363 ratio
CAUUGUACCCUGCUGUAUAAUAAACAAUCUUAGACAUUUAUCAGCUGUUGAUACAAAUGUUAGUCCCUAACCACUUUUUAUAUGUUUUAAAUUUUUGAAAUUCAAGUGUACCUGCCAUAA | 2.27 ratio
AACCUCCUGAACGUUUAGCUUUCAAGUUGUGGCUGUUUUAGAUACUGGUUUUAUUUUCUUUAGCAUUUUUCCCUGUUUCCCAUCUUCUCCUCCCCUGUUCCCAAGGUUUGACUCAUGGAU | 4.82 ratio
UAAUUCAAUGGUUGAAGGCUCAGAACUCAAAAAAGUUCGGUCCAACUCCAGAAUUUACCACAGGUAUUUUCUUUUGGACGCAGACAUGCAAUCUCUGCGGUGGGAACCAUCAAAGAAGGA | 0.122 ratio
CAACUCCAUGGUGGAGGGUUCGGAACUCAAAAAAGUUCGCUCCAAUUCCCGUGUGUAUCACAGGUACUUUCUUUUAGAUGCGGAUAUGCAGUCGCUGAGAUGGGAACCUUCCAAAAAAGA | 0.271 ratio

Repeated from above (set 1):
Strand | fitted relative affinity [z-score]
GACGGTATCCTTCTCCGGACGTGCTAG | 0.962
GAGGAGGGGCTGTTACTCTCGTGCTAG | -0.248
TCACATTTCTGTTTTTGACTGTGCTAG | 3.38
TAAGATTTCAGTATCGATTAGTGCTAG | 0.691
